# Results gathered from unrelated publications.
# Every numbered part comes from another study and shows a few of its results, in no order. Positions count from the first letter of the parent shown.

# Block 1
# Target: vanadate, free oxyanion
# Method: microfluidic competitive inhibition
# Medium: in vitro, cell-free expressed
# Concentration: not given
# Notes: derived from inhibition constants, unchanged parent 676 nM
# Reading: lower = stronger binding
# Parent: PafA, mature enzyme, eGFP fusion (Elizabethkingia meningoseptica, UniProt Q9KJX5); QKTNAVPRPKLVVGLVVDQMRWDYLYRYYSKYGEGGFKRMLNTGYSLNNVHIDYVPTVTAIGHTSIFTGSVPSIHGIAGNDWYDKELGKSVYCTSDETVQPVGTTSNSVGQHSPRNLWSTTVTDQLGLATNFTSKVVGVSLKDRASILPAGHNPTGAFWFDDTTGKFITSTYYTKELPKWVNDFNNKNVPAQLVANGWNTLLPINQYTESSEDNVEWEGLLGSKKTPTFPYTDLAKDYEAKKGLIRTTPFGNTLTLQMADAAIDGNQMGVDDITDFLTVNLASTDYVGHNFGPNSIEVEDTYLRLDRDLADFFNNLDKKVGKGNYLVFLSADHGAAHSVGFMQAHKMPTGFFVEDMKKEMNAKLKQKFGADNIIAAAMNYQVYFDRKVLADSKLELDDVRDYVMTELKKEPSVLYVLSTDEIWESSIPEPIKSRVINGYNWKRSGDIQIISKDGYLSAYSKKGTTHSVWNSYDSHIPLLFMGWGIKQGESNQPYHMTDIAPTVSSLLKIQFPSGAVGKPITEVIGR
Change,oxyanion analog dissociation constant
M258G,583 nM
I450V,783 nM
I52V,602 nM
R386G,747 nM
S140G,1130 nM
T208V,721 nM
K319G,816 nM
K346G,526 nM
K357G,733 nM
F341G,1610 nM
H112V,1130 nM
T228V,363 nM
D233G,617 nM
M404G,697 nM
Y383V,745 nM

# Block 2
# Target: Sal-like protein 4, full length isoform B (SALL4, Homo sapiens, UniProt Q9UJQ4-2, residues 1-616)
# Method: universal PBM
# Form: double-stranded DNA, one strand shown
# Medium: in vitro
# Concentration: not given
# Notes: 8-mer, flanks averaged, mean of replicates
# Reading: higher = stronger binding
# Residues (chain): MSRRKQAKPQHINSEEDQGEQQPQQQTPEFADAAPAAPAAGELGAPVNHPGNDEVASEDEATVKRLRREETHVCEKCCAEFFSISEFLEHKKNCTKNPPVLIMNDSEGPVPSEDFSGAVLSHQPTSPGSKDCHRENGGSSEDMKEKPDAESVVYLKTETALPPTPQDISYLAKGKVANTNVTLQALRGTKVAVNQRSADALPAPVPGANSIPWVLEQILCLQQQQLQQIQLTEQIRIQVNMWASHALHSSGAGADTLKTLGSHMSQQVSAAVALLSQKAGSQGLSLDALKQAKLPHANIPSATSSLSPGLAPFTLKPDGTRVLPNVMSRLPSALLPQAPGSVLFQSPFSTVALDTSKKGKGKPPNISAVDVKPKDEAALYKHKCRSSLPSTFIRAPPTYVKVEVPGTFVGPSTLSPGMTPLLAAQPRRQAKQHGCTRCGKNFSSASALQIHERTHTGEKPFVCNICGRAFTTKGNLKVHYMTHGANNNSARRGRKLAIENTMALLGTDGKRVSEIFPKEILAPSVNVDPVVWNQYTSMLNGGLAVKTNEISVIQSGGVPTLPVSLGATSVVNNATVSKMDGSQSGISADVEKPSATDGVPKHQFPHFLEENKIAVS
Strand,E-score
GTCCACAC,-0.148
AACACAAG,0.0666
AAGACAGA,0.132
AAAATAAT,0.373
CACTAACC,-0.109
TCTTTGCA,0.161
GGAGACCA,-0.265
CATTTTTA,0.273

# Block 3
# Target: 5-hydroxytryptamine receptor 2C (HTR2C, Homo sapiens, UniProt P28335)
# Chain of UniProt P28335 (whole entry, looked up): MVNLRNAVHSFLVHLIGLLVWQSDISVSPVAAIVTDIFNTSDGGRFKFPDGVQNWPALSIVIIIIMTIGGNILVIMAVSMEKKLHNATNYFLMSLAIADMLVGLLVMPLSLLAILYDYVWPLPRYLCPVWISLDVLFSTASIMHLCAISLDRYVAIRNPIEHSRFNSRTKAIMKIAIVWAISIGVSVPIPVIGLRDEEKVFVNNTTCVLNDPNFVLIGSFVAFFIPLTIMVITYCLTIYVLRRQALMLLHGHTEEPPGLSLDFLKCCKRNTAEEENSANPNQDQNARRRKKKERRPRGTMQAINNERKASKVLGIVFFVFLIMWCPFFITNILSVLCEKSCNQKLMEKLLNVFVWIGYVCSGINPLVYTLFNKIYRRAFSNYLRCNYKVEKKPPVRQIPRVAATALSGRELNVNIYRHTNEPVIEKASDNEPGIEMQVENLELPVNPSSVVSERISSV
# Effect on: ligand displacement
# Concentration: 10 µM
Structure (SMILES),inhibition [%]
Cn1cncc1[C@@](O)(COc1ccc(C#N)cc1-c1ccc(OC(F)(F)F)cc1)c1ccc(C#N)cc1,17.1
CN1C(=O)[C@@H](N2CCc3cn(Cc4ccccc4)nc3C2=O)COc2ccccc21,-2.89
CCOc1ccc(S(=O)(=O)Nc2ccc(Cl)cc2C#Cc2cnc(C(=O)O)cc2OC)c2ncccc12,24.4
O=C(NNS(=O)(=O)c1ccccc1F)c1cc(F)cc(-c2ccccn2)c1,6.46
Cc1cc(Nc2nccc(C)n2)cc(-c2cnc([C@@]3(O)CC[C@H](C(=O)O)C(C)(C)C3)s2)c1,3.02

# Further values, each from its own experiment
# Method: cross-linking MS
Molecule,partner,system,conditions,quantity,value
"SNRPB2 (Homo sapiens, UniProt P08579)","SNRPD3 (Homo sapiens, UniProt P62318)",cell fractions,with: DSSO,cross-linked residues,K93 to K78
"PDIA4 (Homo sapiens, UniProt P13667)","HSP90B1 (Homo sapiens, UniProt P14625)",cell fractions,with: DSSO,cross-linked residues,K366 to K161
"RBBP4 (Homo sapiens, UniProt Q09028)","MTA1 (Homo sapiens, UniProt Q13330)",,hits only,interaction screen,cross-linked
"EPN2 (Homo sapiens, UniProt O95208)","HSPA9 (Homo sapiens, UniProt P38646)",cell fractions,with: DSSO,cross-linked residues,S312 to K300

# Excerpt of the above (block 3):
Structure (SMILES),inhibition [%]
CN1C(=O)[C@@H](N2CCc3cn(Cc4ccccc4)nc3C2=O)COc2ccccc21,-2.89
O=C(NNS(=O)(=O)c1ccccc1F)c1cc(F)cc(-c2ccccn2)c1,6.46
Cn1cncc1[C@@](O)(COc1ccc(C#N)cc1-c1ccc(OC(F)(F)F)cc1)c1ccc(C#N)cc1,17.1
